{"data": "Measurements from different studies", "target": "Mitogen-activated protein kinase 9 (MAPK9, Homo sapiens, UniProt P45984)", "note": "“And” joins repeats or separate records; there may be more than shown.", "chain of UniProt P45984 (whole entry, looked up)": "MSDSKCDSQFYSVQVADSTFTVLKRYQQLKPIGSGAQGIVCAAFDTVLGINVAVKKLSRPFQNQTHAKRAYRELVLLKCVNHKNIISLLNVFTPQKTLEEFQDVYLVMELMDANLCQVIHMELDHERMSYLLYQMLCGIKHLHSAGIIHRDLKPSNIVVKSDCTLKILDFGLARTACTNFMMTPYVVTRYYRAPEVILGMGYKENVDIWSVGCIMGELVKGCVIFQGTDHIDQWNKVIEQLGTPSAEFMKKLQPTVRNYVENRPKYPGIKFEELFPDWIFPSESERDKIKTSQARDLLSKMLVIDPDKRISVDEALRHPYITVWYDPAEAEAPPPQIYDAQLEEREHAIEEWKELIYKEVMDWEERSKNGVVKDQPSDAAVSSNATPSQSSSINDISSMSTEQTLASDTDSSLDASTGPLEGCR"}
{"assay": "enzyme activity, inhibitor", "conditions": "0.02032 µM, unit not given", "scale": "baseline: vehicle", "remaining activity": 1.01, "SMILES": "Cc1cc(NC(=O)c2cccc(N)c2)ccc1Nc1nccc(-c2cccnc2)n1"}
{"assay": "kinase activity, KinaseProfiler", "conditions": "0.03 µM, species human", "scale": "baseline: control", "remaining activity": "99%", "SMILES": "COc1ccc(NC(=O)Nc2ccc3c(c2)C(=O)N(C(C)CO)CC(C)C(CN(C)Cc2ccc4c(c2)OCO4)O3)cc1 (stereo not drawn)"}
{"assay": "kinase activity, inhibitor, ProQinase kinase profiling", "conditions": "25 µM", "scale": "baseline: control", "remaining activity": "116% and 118%", "SMILES": "COCC12C(=O)NC3C4(C(OC)CC1O)C1CC5(O)C(OC)C(O)C(OC(C)=O)(C1C5OC(=O)c1ccccc1)C3(O)C(OC)C24 (stereo not drawn)"}
{"assay": "kinase activity, inhibitor", "conditions": "1 µM", "scale": "baseline: untreated control", "remaining activity": "110%", "SMILES": "COc1c(OCCCN2CCOCC2)ccc2c1N=C(NC(=O)c1cnc(N)nc1)N1CCN=C21"}
{"assay": "enzyme activity", "conditions": "100 nM, human enzyme, with: 10 µM ATP", "scale": "baseline: untreated", "remaining activity": "98%", "SMILES": "O=C=[N][Ru-4]123([n]4c5ccc(O)cc5c5c6c(c7cc(F)c[n+]1c7c54)C(=O)NC6=O)[S+]1CC[S+]2CC[S+]3CC1 (stereo not drawn)"}
{"assay": "enzyme activity, Dundee kinase panel", "conditions": "10 µM", "remaining activity": "83%", "SMILES": "Cc1cccc(-c2ccc3nc(NC(=O)C4CCCO4)nn3c2)c1 (stereo not drawn)"}
{"assay": "enzyme activity, inhibitor", "conditions": "10 µM", "remaining activity": "48%", "SMILES": "Nc1nc(Nc2ccccc2)sc1C(=O)c1ccccc1"}
{"assay": "enzyme activity, Dundee kinase panel", "conditions": "10 µM", "remaining activity": "94%", "SMILES": "Cc1ccc(C)c(-c2ccc3nc(NC(=O)C4CCCCC4)nn3c2)c1"}
{"assay": "enzyme activity, inhibitor", "conditions": "0.0007527 µM, unit not given", "scale": "baseline: vehicle", "remaining activity": 1, "SMILES": "C#CCOC(=O)[C@@]1(C)C=C(C(=O)Nc2cccc(C(=O)Nc3ccc(C)c(Nc4nccc(-c5cccnc5)n4)c3)c2)C(=O)CC1"}
{"note": "Some of these lines once more:"}
{"assay": "enzyme activity, inhibitor", "conditions": "10 µM", "remaining activity": "48%", "SMILES": "Nc1nc(Nc2ccccc2)sc1C(=O)c1ccccc1"}
